Experimental data gathered from unrelated publications.
Numbered parts are unrelated; each lists some results of a single study.
Sequence of UniProt P14616 (whole entry, looked up): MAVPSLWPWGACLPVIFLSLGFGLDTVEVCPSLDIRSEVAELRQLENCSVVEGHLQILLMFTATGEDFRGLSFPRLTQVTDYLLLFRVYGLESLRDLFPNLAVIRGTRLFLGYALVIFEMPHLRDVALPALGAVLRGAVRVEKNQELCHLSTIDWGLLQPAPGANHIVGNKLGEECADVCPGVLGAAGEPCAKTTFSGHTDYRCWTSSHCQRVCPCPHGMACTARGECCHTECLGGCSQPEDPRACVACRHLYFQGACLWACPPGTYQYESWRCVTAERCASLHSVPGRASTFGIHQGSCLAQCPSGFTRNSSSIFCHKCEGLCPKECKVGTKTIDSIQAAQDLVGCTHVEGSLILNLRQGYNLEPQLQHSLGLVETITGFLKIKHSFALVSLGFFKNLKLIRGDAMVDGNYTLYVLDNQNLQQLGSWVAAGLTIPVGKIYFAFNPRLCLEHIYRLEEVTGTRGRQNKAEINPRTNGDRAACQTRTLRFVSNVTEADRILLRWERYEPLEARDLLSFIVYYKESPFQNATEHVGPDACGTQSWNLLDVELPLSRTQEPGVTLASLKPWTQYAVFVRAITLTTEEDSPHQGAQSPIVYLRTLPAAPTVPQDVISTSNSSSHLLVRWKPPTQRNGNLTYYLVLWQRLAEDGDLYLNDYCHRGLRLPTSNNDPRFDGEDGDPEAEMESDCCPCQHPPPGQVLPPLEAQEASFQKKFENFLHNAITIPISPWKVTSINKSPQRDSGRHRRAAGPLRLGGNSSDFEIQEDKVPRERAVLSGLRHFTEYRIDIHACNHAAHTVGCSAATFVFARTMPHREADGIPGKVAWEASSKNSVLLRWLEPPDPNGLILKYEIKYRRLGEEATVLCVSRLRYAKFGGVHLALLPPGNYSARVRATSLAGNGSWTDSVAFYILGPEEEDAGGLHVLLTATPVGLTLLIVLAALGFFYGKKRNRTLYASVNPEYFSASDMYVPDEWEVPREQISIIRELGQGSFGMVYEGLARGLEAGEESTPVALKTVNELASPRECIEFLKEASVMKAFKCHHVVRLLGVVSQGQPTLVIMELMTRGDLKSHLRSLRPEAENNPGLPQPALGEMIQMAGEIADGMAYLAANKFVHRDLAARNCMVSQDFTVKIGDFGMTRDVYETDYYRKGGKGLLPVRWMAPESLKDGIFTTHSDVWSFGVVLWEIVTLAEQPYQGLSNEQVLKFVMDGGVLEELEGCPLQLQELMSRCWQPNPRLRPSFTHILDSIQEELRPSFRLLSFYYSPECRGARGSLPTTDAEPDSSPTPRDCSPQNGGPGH
Sequence of UniProt P29320 (whole entry, looked up): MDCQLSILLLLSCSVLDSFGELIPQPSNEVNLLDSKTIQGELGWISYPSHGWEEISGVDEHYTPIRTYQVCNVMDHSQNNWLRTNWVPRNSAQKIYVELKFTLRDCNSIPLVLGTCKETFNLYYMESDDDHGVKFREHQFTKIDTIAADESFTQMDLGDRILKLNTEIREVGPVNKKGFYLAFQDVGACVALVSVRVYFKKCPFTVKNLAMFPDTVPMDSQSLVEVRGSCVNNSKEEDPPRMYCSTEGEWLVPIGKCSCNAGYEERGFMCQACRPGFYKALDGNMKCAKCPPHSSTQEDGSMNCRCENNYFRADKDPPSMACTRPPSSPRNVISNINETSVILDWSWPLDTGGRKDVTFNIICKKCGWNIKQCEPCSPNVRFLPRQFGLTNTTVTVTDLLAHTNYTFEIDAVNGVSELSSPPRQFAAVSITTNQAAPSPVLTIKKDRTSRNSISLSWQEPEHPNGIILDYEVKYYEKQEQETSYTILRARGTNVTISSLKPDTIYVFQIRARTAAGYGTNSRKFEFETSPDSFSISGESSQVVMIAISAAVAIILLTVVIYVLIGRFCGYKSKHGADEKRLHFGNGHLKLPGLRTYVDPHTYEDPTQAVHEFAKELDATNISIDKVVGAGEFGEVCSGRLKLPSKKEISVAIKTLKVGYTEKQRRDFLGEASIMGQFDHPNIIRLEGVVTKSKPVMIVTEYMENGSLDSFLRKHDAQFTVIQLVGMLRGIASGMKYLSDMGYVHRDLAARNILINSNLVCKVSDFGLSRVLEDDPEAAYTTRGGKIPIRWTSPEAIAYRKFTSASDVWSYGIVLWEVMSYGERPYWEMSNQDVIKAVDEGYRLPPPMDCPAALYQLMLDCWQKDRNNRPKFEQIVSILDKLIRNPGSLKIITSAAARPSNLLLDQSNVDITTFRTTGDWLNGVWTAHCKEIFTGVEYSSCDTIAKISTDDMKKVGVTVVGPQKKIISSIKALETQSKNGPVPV

Sample 1
SMILES: CO[C@@H](C)c1c(Nc2ccc([C@H](N(C)C(=O)C3CCS(=O)(=O)CC3)C(F)(F)F)cc2)cnc2cc(Cl)nn12
Read-out: cell-free assay
Technique: competition with immobilised ligand
Concentration: 1 µM
| target | remaining binding [%] |
| --- | --- |
| TLK1 (Homo sapiens, UniProt Q9UKI8) | 100 |
| KDR (Homo sapiens, UniProt P35968) | 100 |
| INSRR (Homo sapiens, UniProt P14616) | 94 |
| SRMS (Homo sapiens, UniProt Q9H3Y6) | 95 |
| CDKL1 (Homo sapiens, UniProt Q00532) | 57 |
| PIM1 (Homo sapiens, UniProt P11309) | 88 |
| MAPK10 (Homo sapiens, UniProt P53779) | 96 |
| Tyrosine-protein kinase ABL1, phosphorylated (ABL1, Homo sapiens, UniProt P00519, F317L) | 89 |
| RET (Homo sapiens, UniProt P07949, V804L) | 86 |
| Tyrosine-protein kinase ABL1, non-phosphorylated (ABL1, Homo sapiens, UniProt P00519, Q252H) | 100 |
| PRKACB (Homo sapiens, UniProt P22694) | 81 |
| FGR (Homo sapiens, UniProt P09769) | 100 |
| EGFR (Homo sapiens, UniProt P00533) | 93 |
| EPHA3 (Homo sapiens, UniProt P29320) | 97 |

Sample 2
Target: Platelet-derived growth factor receptor alpha (PDGFRA, Homo sapiens, UniProt P16234)
Sequence of UniProt P16234 (whole entry, looked up): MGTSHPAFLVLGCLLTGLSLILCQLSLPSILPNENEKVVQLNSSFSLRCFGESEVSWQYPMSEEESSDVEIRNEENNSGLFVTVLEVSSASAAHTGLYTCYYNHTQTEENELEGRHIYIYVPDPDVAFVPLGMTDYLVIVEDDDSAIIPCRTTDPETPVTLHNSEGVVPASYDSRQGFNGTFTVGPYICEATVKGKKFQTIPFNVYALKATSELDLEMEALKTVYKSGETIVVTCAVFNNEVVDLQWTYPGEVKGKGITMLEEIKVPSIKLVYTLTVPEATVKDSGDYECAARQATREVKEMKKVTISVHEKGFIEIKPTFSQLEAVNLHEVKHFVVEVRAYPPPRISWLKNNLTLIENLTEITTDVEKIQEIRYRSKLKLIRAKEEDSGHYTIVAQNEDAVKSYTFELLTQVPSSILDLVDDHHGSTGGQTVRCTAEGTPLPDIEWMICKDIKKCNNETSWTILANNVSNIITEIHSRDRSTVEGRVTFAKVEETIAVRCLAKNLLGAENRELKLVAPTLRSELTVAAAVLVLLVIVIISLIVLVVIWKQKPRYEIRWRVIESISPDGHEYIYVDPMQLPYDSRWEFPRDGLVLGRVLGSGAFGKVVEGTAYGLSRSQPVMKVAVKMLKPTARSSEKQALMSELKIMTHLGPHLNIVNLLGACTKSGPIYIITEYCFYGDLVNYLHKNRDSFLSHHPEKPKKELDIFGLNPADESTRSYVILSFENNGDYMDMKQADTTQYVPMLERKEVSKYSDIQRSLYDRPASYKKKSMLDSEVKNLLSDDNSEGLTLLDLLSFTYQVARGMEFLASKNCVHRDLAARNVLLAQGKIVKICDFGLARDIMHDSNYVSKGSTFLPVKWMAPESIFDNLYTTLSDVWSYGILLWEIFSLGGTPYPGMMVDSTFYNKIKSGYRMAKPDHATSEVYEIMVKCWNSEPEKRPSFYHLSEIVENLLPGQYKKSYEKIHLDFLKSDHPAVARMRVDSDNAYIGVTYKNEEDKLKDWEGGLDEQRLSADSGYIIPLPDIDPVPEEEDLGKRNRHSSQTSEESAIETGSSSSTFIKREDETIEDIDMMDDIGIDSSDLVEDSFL
Read-out: enzyme activity
Action: inhibitor
Concentration: 0.5 µM
Relative to: control
| SMILES | remaining activity [%] |
| --- | --- |
| Oc1ccc(Nc2nc(-c3ccc(Cl)cc3)cs2)cc1 | 101 |
| CC(=O)c1ccc(N2CCOCC2)cc1O | 94.7 |
| Nc1nc(Nc2ccc(S(N)(=O)=O)cc2)nn1C(=O)c1c(F)cccc1F | 82 |
| O=C1NC(=O)C(c2c[nH]c3ccccc23)=C1c1c[nH]c2ccccc12 | 90.6 |
| O=S(=O)(NCCNC/C=C/c1ccc(Br)cc1)c1cccc2cnccc12 | 98.8 |
| Cc1cc(Nc2nc(-c3ccccc3)nc3ccccc23)n[nH]1 | 81.6 |
| COc1cc(Nc2c(C#N)cnc3cc(OCCCN4CCN(C)CC4)c(OC)cc23)c(Cl)cc1Cl | 86.9 |
| CC#CC(=O)Nc1cc2c(Nc3ccc(F)c(Cl)c3)ncnc2cn1 | 94.9 |

Sample 3
SMILES: CC(C)n1cnc(-c2ccc(F)cc2)c1-c1ncc(C(=O)Nc2ccc(N3CCN(C)CC3)cc2)[nH]1
| technique | measured | species | dose | setting | patients with adverse event [%] |
| --- | --- | --- | --- | --- | --- |
| Phase 2a trial | haemoptysis | human, idiopathic pulmonary fibrosis | all compound arms | grade 3 | 0 |
| Phase 2a trial | blood lactate dehydrogenase increased | human, idiopathic pulmonary fibrosis | 30 mg once daily | grade 2 | 0 |
| Phase 2a trial | hypoalbuminaemia | human, idiopathic pulmonary fibrosis | 30 mg once daily | grade 3 | 0 |
| Phase 2a trial | hepatobiliary disorders | human, idiopathic pulmonary fibrosis | 60 mg once daily | grade 2 | 0 |
| Phase 2a trial | hypercholesterolaemia | human, idiopathic pulmonary fibrosis | 30 mg once daily | grade 1 | 0 |
| Phase 2a trial | blood fibrinogen increased | human, idiopathic pulmonary fibrosis | 60 mg once daily | grade 5 | 0 |
| Phase 2a trial | hypoalbuminaemia | human, idiopathic pulmonary fibrosis | all compound arms total | grade 2 | 0 |
| Phase 2a trial | blood lactate dehydrogenase increased | human, idiopathic pulmonary fibrosis | 60 mg once daily | grade 5 | 0 |
| Phase 2a trial | hepatic steatosis | human, idiopathic pulmonary fibrosis | 60 mg once daily | grade 3 | 0 |
| – | any adverse event, grade 4 | idiopathic pulmonary fibrosis patients | dose not given | all compound arms pooled | 0 |
| Phase 2a trial | eosinophilia myalgia syndrome | human, idiopathic pulmonary fibrosis | 30 mg once daily | grade 2 | 0 |

Sample 4
SMILES: COc1cc(C(=O)N2CCC(N3CCN(C)CC3)CC2)ccc1Nc1ncc2c(n1)N(C)c1ccccc1C(=O)N2C
Lyn: Tyrosine-protein kinase Lyn (Lyn, Mus musculus, UniProt P25911)
Sequence of UniProt P25911 (whole entry, looked up): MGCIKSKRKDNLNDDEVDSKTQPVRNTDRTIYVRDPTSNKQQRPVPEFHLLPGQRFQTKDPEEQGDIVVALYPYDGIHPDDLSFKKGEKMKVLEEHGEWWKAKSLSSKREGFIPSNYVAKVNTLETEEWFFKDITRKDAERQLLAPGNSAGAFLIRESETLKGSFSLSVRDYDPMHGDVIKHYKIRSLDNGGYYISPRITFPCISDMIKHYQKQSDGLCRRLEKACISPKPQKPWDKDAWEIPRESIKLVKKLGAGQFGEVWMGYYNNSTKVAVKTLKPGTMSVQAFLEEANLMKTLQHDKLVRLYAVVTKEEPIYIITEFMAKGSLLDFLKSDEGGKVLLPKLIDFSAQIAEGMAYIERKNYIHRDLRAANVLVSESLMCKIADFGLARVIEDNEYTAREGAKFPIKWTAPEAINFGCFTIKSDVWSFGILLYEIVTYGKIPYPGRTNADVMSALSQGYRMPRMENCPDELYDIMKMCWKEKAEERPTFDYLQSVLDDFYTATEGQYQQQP
| tested on | assay | system | conditions | inhibition [%] |
| --- | --- | --- | --- | --- |
| MARK2 (human) | probe labelling, KiNativ ATP probe | human PBMC lysate | concentration not given, LYS1 labelled site | -1.2 |
| mouse CaMK1α | probe labelling, KiNativ ATP probe | mouse brain lysate | 1 µM, LYS1 site LVAIkCIAK | -18.5 |
| CDK9 (mouse) | probe labelling, KiNativ, measured: DMkAANVLITR peptide, LYS2 site | brain tissue lysate (mouse) | 1 µM, added: ADP acyl-phosphate probe | -1.4 |
| human PBMC | probe labeling, inhibitor, KiNativ profiling | cell lysate | concentration not given, LYS1 site, added: ADP acyl-phosphate probe 1 µM | 2 |
| mouse CK1δ and CK1ε | probe labelling, KiNativ ATP probe | mouse brain lysate | 0.1 µM, LYS2 site | 12.5 |
| Lyn | enzyme activity, inhibitor | – | 1 µM | -12.9 |
| Lyn | KiNativ profiling | mouse brain lysate | 1 µM, LYS1 site, added: ATP acyl phosphate probe | -2.6 |
| human PBMC | probe labeling, inhibitor, KiNativ profiling, measured: FYAVkVLQK | cell lysate | concentration not given, LYS1 site, added: ADP acyl-phosphate probe 0.1 µM | -12 |

For quick reference, copied from above (sample 1):
| target | remaining binding [%] |
| --- | --- |
| PIM1 (Homo sapiens, UniProt P11309) | 88 |
| MAPK10 (Homo sapiens, UniProt P53779) | 96 |
